Measured values gathered from unrelated publications.

NC1(C(=O)N[C@@H](CCO)c2ccc(Cl)cc2)CCN(c2nc[nH]c3nccc2-3)CC1
Tmax (LC-MS/MS, non-compartmental; human patients, plasma; 160/320 mg cohort, cycle 2, median, with: enzalutamide): 2 h

CCn1cc(C(=O)N2CCOCC2)c(=O)c2cc(NC3Cc4ccccc4C3)cnc21
Tmax (human, fasted; oral suspension, 5 mg single dose, median): 1 h

Cl.[2H]C([2H])([2H])CC(=O)c1cnc(NC(=O)C2CC2)cc1Nc1cccc(-c2ncn(C([2H])([2H])[2H])n2)c1OC
Tmax (human, fasted, multiple dose; oral, 10 mg once daily, tablet, day 1, median): 2.02 h

C=CCn1c(=O)c2cnc(Nc3ccc(N4CCN(C)CC4)cc3)nc2n1-c1cccc(C(C)(C)O)n1
Tmax (human; oral, 300 mg once daily, cycle 1 day 17, with: durvalumab 1500 mg IV; median): 3 h

O=C(O)CCC(=O)O.[2H]C([2H])([2H])Oc1cc(C)c2[nH]ccc2c1CN1CC[C@@H](C2CC2)C[C@H]1c1ccc(C(=O)O)cc1
Tmax (human, plasma; 300 mg once daily, day 10, multiple ascending dose, median): 3 h

CN1C(=O)[C@@H](NC(=O)c2nnc(Cc3ccccc3)[nH]2)COc2cccnc21
Tmax (healthy human, fasted, plasma; oral, 200 mg single dose, median): 3.52 h

CCCCC1=NC2(CCCC2)C(=O)N1Cc1ccc(-c2ccccc2S(=O)(=O)Nc2noc(C)c2C)c(COCC)c1
Tmax (healthy adult volunteers, plasma; oral, 1600 mg, 14 days repeated dosing, fasted, crushed tablet): 3.5 h

CN1CCC[C@H](CN2c3ccccc3Sc3ccccc32)C1.Cl
Tmax (fasted female ICR mouse, lymph node; oral, 16 mg/kg): 1 h

O=C(O)C[C@H](O)C[C@H](O)/C=C/c1c(C2CC2)nc2ccccc2c1-c1ccc(F)cc1
Tmax (FVB wild-type mouse, plasma; oral, 5 mg/kg): 0.8 h
